Published values pooled from the literature.
Numbered parts are unrelated; each lists some results of a single study.

Series 1
Target: Phosphate system positive regulatory protein PHO4, full length, GST-tagged (PHO4, Saccharomyces cerevisiae, UniProt P07270, residues 1-312)
Method: competition protein-binding microarray
Form: double-stranded DNA, one strand shown
Medium: in vitro
Concentration: 2 µM
Setting: whole 60-bp probe, lowest competitor level
With: Cbf1 competitor, 0.05 µM
Direction: higher = stronger binding
Constant ends, left off below: … GTCTTGATTCGCTTGACGCTGCTG
Residues (chain): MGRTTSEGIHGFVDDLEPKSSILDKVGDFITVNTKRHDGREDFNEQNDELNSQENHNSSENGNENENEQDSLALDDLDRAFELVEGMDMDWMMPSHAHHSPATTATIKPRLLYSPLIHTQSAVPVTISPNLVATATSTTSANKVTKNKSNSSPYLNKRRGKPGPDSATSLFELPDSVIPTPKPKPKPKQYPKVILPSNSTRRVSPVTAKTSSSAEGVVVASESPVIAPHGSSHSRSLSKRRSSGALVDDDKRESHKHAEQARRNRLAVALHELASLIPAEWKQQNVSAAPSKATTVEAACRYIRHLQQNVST
| Oligonucleotide | fluorescence intensity [a.u.] |
| --- | --- |
| CTTTCCCGATCTTGTCACCCCACTTTAGCACATTTG | 4510 |
| ACCTAGAAGAAGCCACTCGGGCACTAACTCGCCAGG | 4070 |
| TAAAATGAAAAATGATCCGTGATGGGAAAAGTTATA | 4200 |
| AAAAGTATACTCGGAAACGTGATGGAATACCTTAGG | 10700 |
| TTTGATCTGATAGGACTCGTGCCAGCACAAGTCCTT | 8460 |
| CATCGGCTCAACTTGATCATGCAATTAGCAAGCAAC | 4040 |
| CTAACGAAGGTTTGAAACGTGGGTGACAAGCCAAGT | 12600 |
| ATCAGGCATTCATTGACCGTGCCGAACAAACCAAGC | 6400 |
| CGGGGTTAAGTTTGTTTTGTGGGTGGCTTGCAGCAG | 4290 |
| GCGCAATTCGCCAAGTTCGTGACGGAATTCTTCGGG | 3860 |
| ACATCTTTCAATTTGCACGGGTGCAACCTCAAATAT | 8400 |
| GGAGGGCAGTAGTTCCATGTGCTTCTCAGAAGAGCT | 8270 |
| CATACCCAACCTTGAGTTGTGGGTGAAGATATTTGT | 4590 |
| TCTCCATGGCTGAGACTTGTGTGTATCTCACAGTGG | 4740 |
| ACTTGGCCCTATTCATCCGTGACGGGATCATATCTT | 3640 |
| CAATCTGGTGGGGGCACCGTGAATATCACCGTCGTC | 4890 |
| CTTCTGTAAATTTCGCACGTGTTTTGACGCGCCCCG | 16700 |
| TTTTCAATCGTTGGCTACGTGCGGACACTTGTTTTG | 8080 |

Series 2
Target: Sal-like protein 4, full length isoform B (SALL4, Homo sapiens, UniProt Q9UJQ4-2, residues 1-616)
Method: universal PBM
Form: double-stranded DNA, one strand shown
Medium: in vitro
Concentration: not given
Setting: 8-mer, flanks averaged, mean of replicates
Direction: higher = stronger binding
Construct (chain): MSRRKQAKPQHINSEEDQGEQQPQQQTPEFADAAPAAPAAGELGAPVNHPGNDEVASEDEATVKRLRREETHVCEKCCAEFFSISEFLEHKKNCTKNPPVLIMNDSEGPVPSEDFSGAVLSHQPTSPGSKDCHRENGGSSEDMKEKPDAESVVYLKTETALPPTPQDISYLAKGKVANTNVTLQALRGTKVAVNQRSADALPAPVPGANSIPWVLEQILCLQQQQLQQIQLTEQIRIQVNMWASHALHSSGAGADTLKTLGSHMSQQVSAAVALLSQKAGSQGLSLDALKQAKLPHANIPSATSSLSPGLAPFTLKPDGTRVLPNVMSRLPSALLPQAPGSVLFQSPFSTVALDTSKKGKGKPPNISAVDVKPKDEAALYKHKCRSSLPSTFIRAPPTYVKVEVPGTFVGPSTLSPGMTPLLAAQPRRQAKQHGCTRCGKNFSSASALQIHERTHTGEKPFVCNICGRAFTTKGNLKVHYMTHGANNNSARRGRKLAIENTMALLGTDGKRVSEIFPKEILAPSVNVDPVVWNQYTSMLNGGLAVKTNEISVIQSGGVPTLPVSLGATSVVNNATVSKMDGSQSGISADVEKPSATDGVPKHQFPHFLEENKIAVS
| Oligonucleotide | E-score |
| --- | --- |
| AAGCGGCC | -0.218 |
| CTGTCACA | 0.0151 |
| ACCATAAT | 0.338 |
| AACGTCTC | -0.0538 |
| AGAGAAAC | 0.0461 |
| GAGCGGCC | -0.398 |
| TACTAGGA | 0.0835 |
| AACCCAAG | -0.00034 |
| ATTATTAG | 0.394 |
| CTGCGCAC | -0.13 |
| AATCGCAG | 0.0266 |
| ACTAGGGC | -0.0891 |
| AGCCGGGC | -0.412 |
| CCCGCTCG | -0.237 |
| GGACGCAC | -0.26 |
| AAGGGACA | -0.0887 |
| CAGGGAGA | -0.311 |
| AGTTTGAT | 0.0519 |

Series 3
Target: Histone acetyltransferase KAT6A, both winged helices, GST fusion (KAT6A, Homo sapiens, UniProt Q92794, residues 1-181)
Method: protein binding microarray
Form: double-stranded DNA, one strand shown
Medium: in vitro
Concentration: not given
Setting: 8-mer, flanks averaged, mean of 2 arrays, mostly near background
Baseline: not given
Direction: higher = stronger binding
Construct (chain): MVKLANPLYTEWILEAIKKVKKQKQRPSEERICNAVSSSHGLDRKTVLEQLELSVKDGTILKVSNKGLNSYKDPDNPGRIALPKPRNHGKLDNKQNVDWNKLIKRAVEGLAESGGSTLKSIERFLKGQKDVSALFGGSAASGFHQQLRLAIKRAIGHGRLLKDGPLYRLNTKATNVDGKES
| Oligonucleotide | E-score |
| --- | --- |
| TATAAGCA | -0.076 |
| ACTGGTGG | -0.209 |
| AATGGTGC | -0.0928 |
| AAGATAAC | -0.0732 |
| ATATCGCC | 0.196 |
| AGGCGCAA | 0.144 |
| GGGGAAAA | -0.149 |
| CGTGTGCA | -0.0126 |
| AATACCAC | -0.179 |
| AGCCACAT | -0.093 |
| TCTAACAA | -0.0485 |
| CTAGATAG | -0.108 |
| ATGTCGGC | 0.141 |
| GAGTCAGA | 0.0028 |
| CAAGCACA | -0.176 |
| GTCAGAGA | -0.122 |
| ACTTATTC | -0.0973 |

Series 4
Target: RNA binding protein fox-1 homolog 2, RRM domain, GST-SBP tag (RBFOX2, Homo sapiens, UniProt O43251-10, residues 100-194)
Method: RNA Bind-n-Seq
Form: RNA
Medium: in vitro
Concentration: 365 nM
Setting: natural RNA segment, single round, ends assumed
Baseline: no-protein control
Direction: higher = stronger binding
Constant ends, left off below: GGGAGUUCUACAGUCCGACGAUC … UGGAAUUCUCGGGUGCCAA
Construct (chain): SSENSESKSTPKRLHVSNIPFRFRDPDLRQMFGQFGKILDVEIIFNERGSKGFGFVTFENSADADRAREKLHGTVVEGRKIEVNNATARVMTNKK
| Oligonucleotide | RBNS enrichment (R) |
| --- | --- |
| UAAAUAUCCCUCAACAGACACAGGCCUGGUACCUGGGUAAAAGUUGCAGCAUCCCACCAUCCUCCAGACAGACCACCUGACCCCUUCUCAACUCUGUAACAUGGACGCAA | 2.24 |
| AUAUUUUCCGGUGCUGAUAUGUUUCCAGACUCCAGCGCAACCUGGGGUGCUCUCCAGACCCGUGCAGGGGCCGCCUGGGGUACACGGAAGGAAGUUGAGUCCUAGUGCAA | 0.523 |
| UUUUCCAGUUAGCCUAUGUAACCAAGUAUGCAUAACAUAACAGUAUUACCCUUUCACUCUUCUCACAGGACAUGUACCCAAAUAUGGUACUUAUUUAUGUAGUCACUGUG | 0.454 |
| UGGCUAGCUAUGGUUUUCAGUACAUUUCCUACUUUAAGAGUAAUUACUGACAAAUAUGUAUUUCCUAUAUGUUUAUACUUUGAUUAUAAAAAAGUAUUUUGUUUUGAUUU | 0.658 |
| GUUUCCCCAUCCAACUAUUAGUUUCAUACUUUGAAAACUUACUUUCAGAUUAUUCUCAAAGAACACAGUAGCACCUAAAUCUGUUUUCAAUUGGGCUUAAAAAUUGACAU | 1.07 |
| AAAUGUGUUAGUCUUUGAAUGGAAAACAACUAUUUUCUCAUCAUUGGGUCAAUAUUGACUGAUCAGUAGUAGGUCUUUUACCAUUCUGGACAUAAGUCUAGGUGUAGAAA | 0.505 |
| UCUCUCCUUUUUCUUUUUUCUUUUUCUUUUCUUUUUGUUUUUUGUUUUUUUUUGUGGGAGAUCAAAGGUUUAAAGUCUUACUCUUAAGAUGUGUUUGCAGAAAGAAGGAA | 2.01 |
| ACCUAGUGAUUAAUUGGCUGAGAAAACCCUGGAGUGGAGGGAGGCUCAGAGAUACUGAUAUGGAUGUGGGAGGGCUCUAAAGUUAGAGGUCACCAACUCCACAGAUGAAA | 0.621 |
| AAUGGAUACAUAACAAAGAAUUCUCUGUGACUUAUUAAGAAUGACUGUGUCUGCCCAGUAACCUGUUCUGAGUUACUGGUAAAGUCGUGGGUGGGUGAAUGGCAGGCUUC | 1.02 |
| AGACCACACCUGGAAGAGUUUCUGGGCUGGCUUUAAGUCCUGUUUGAAAAAGCAACCCAGUCAGCUGACUUCCUCGUGCAAUGUGUUAAACUGUGAACUCUGCCCAUGUG | 1.65 |
| GGACUCGAGGGCAGCAGAUCCAUCUCCCGUCCCUUGCUGCAUGAUGGUCACUAGCUGAUCUGUGAUGGCGUCCCUUCCCCCAUUGAUUUUCUGUGUUUGAAGUAUGUGCA | 20.8 |
| UGCCCACGCUCCUCCACCACGAGGCACUGACCUGCGUCGGGUGGUGACCGUGGCUGGCGGUCACGCCCUCAGCCCCUCCGGGCACACGUGCCGCCUGACCGGGCGACCCU | 0.187 |

Series 5
Target: Interferon regulatory factor 5, full length, phosphomimetic (IRF5, Homo sapiens, UniProt Q13568-2, residues 1-514, S451D/S453D/S456D/S462D)
Method: protein-binding microarray
Form: double-stranded DNA, one strand shown
Medium: in vitro
Concentration: 940 nM top
Setting: 60-bp whole probe
With: salmon DNA 0.4 mg/ml
Baseline: random background probes
Direction: higher = stronger binding
Constant ends, left off below: GCCTAGCAC … GTCTTGATTCGCTTGACGCTGCTG
| Oligonucleotide | fitted relative affinity |
| --- | --- |
| GACGGTCTCCTACTCCTGACGTGCTAG | 0.338 z-score |
| GTAGATATCAGTTTCGATTAGTGCTAG | 8.19 z-score |
| TTAGGTATCGACTATCGGTTGGTGCTA | 6.63 z-score |
| TTGGCTTATTCCAGATTTTTGTGCTAG | 0.26 z-score |
| GACGATTTCAGACTGGTGACGTGCTAG | -0.0239 z-score |
| CTCCTCTCTGGGTCAAAGGTGTGCTAG | -0.0698 z-score |
| TTAGGACTGGGCCTCGGTTAGTGCTAG | -0.711 z-score |
| TCATTTTTTAGCTTCTCACTGTGCTAG | 1.16 z-score |
| GACGGAATCGACTTTCGGGACGTGCTA | 1 z-score |
| TCAGATATCTTTTTCCTACTGTGCTAG | 0.589 z-score |
| GACGGTTTCCTTTGCCTGACGTGCTAG | 1.45 z-score |
| GACGGACTGGTTATCGGGACGTGCTAG | 0.0242 z-score |
| GACGATATCAGTCTCGAGAAGTGCTAG | 0.953 z-score |

Excerpt of the above (series 3):
| Oligonucleotide | E-score |
| --- | --- |
| AGCCACAT | -0.093 |
| AGGCGCAA | 0.144 |
| CAAGCACA | -0.176 |
| CTAGATAG | -0.108 |
| AATACCAC | -0.179 |
| TCTAACAA | -0.0485 |
| ACTTATTC | -0.0973 |
| ATGTCGGC | 0.141 |
| CGTGTGCA | -0.0126 |
